Assay results gathered from unrelated publications.
Each line is one published result; not all experiments were run side by side. Values joined by “and” are separate records of one study, mostly repeats; a detail may differ. ± gives the spread as reported.

Structure (SMILES) | assay | test system | conditions | quantity | result
O=C1NC2(CC2)COc2ncc(F)cc2[C@H]2COCCN2c2ccn3ncc1c3n2 | – | Sprague-Dawley rat, female, adrenals | oral, 20 mg/kg/day, 4 weeks, end of treatment | organ-to-body weight ratio | 0.024 ± 0.004%
CC[C@H](C)[C@H](NC(=O)[C@H](C)NC(=O)CNC(=O)[C@H](Cc1c[nH]cn1)NC(=O)[C@@H](NC(=O)[C@H](Cc1ccccc1)NC(=O)[C@H](CCCCN)NC(=O)CNC(=O)[C@H](C)NC(=O)[C@H](CCCCN)NC(=O)[C@H](Cc1ccccc1)NC(=O)[C@@H](NC(=O)[C@H](Cc1c[nH]cn1)NC(=O)[C@H](CCCCN)NC(=O)[C@H](Cc1ccccc1)NC(=O)[C@@H](NC(=O)[C@H](CO)NC(=O)CNC(=O)[C@H](Cc1c[nH]c2ccccc12)NC(=O)CNC(=O)[C@H](C)N)[C@@H](C)CC)[C@@H](C)CC)[C@@H](C)CC)C(=O)N[C@@H](CCC(N)=O)C(=O)N[C@@H](C)C(=O)N[C@@H](Cc1c[nH]cn1)C(=O)N[C@@H](CC(N)=O)C(=O)N[C@@H](CC(=O)O)C(N)=O | – | zebrafish embryos 28 hpf, E3 medium | 1 h | acute toxic concentration | 5 µM
COc1cnc2cccc(N3CCc4c(cc(Cn5ccnc5)cc4-c4cn(C)nc4C(F)(F)F)C3=O)c2c1 | – | BALB/c nude mice, MV4-11 xenograft | intraperitoneal, 50 mg/kg, day 21 | body weight | 21.7 g and 24.8 g and 21.8 g and 22.8 g
CC(C)[C@H](NC(=O)[C@@H](NC(=O)[C@H](CCCNC(=N)N)NC(=O)[C@H](CCCNC(=N)N)NC(=O)[C@H](CCCNC(=N)N)NC(=O)[C@H](CCC(N)=O)NC(=O)[C@H](CCCNC(=N)N)NC(=O)[C@H](CCCNC(=N)N)NC(=O)[C@H](CCCCN)NC(=O)[C@H](CCCCN)NC(=O)[C@H](CCCNC(=N)N)NC(=O)CN)[C@@H](C)O)C(=O)N[C@H](C(=O)N[C@@H](CO)C(=O)N1CCC[C@H]1C(=O)O)[C@@H](C)O | – | ICR mice, male, liver | intranasal, 5 mg/kg daily, 4 weeks | organ weight | 1.9 ± 0.381 g
CC1(C)C(=O)N(c2ccc(C#N)c(C(F)(F)F)c2)C(=S)N1c1ccc(C(N)=O)c(F)c1 | – | human, male, plasma | oral, 160 mg, single dose, fasting | AUC(0-t) | 258 ± 48.9 µg·h/mL
COc1cc2c(cc1O)C(CCc1ccc(Cl)cc1)N([11CH3])CC2 (centres unmarked) | PET | Sprague-Dawley rat, male, brain | intravenous, 1 mg/kg, carrier added | peak brain radioactivity | 0.9 %ID/mL
N#[11C]c1ccc(-c2csc(NN=C3CCCC3)n2)cc1 | – | C57BL/6 mice, male, muscle | intravenous, 3 MBq, 15 min | radioactivity uptake | 1.15 ± 0.03 %ID/g
CC[C@H](C)[C@H](NC(=O)[C@H](CCCCN)NC(=O)CNC(=O)[C@H](CC(C)C)NC(=O)[C@H](Cc1ccccc1)NC(=O)[C@H](CCCCN)NC(=O)[C@H](CO)NC(=O)[C@H](Cc1ccccc1)NC(=O)[C@H](Cc1c[nH]c2ccccc12)NC(=O)[C@H](CCC(N)=O)NC(=O)[C@@H](NC(=O)[C@H](Cc1ccccc1)NC(=O)CCCCCNC(=O)CN1CCN(CC(=O)O)CCN(CC(=O)O)CCN(CC(=O)O)CC1)C(C)C)C(=O)N[C@@H](CCC(=O)O)C(=O)N1CCC[C@H]1C(=O)N[C@@H](CC(=O)O)C(=O)N[C@H](C(=O)N[C@@H](CO)C(=O)N[C@@H](CCC(N)=O)C(=O)N[C@H](C(=O)N[C@@H](CCC(N)=O)C(=O)N[C@@H](CC(=O)O)C(=O)N1CCC[C@H]1C(=O)N[C@@H](CC(N)=O)C(=O)N[C@@H](CC(=O)O)C(=O)N[C@@H](CCC(N)=O)C(=O)N[C@@H](Cc1ccc(O)cc1)C(=O)N[C@@H](CCC(=O)O)C(=O)N1CCC[C@H]1C(=O)N[C@@H](Cc1ccccc1)C(=O)O)C(C)C)C(C)C [copper-64 labelled] | dynamic PET | mouse, CT26 tumour, checkpoint inhibitor-treated, tumour | intravenous, 100 µCi/mouse, 1740 s | SUVmean | 3.69 SUV
CC(C)C[C@H](NC(=O)[C@H](C)NC(=O)[C@H](Cc1cn(CCc2ccc(O)c(C=O)c2)nn1)NC(=O)[C@H](Cc1ccccc1)NC(=O)CCNC(=S)Nc1ccc2c(c1)C(=O)OC21c2ccc(O)cc2Oc2cc(O)ccc21)C(=O)N[C@@H](CC(=O)O)C(=O)N[C@@H](Cc1c[nH]c2ccccc12)C(=O)N[C@@H](CO)C(=O)N[C@@H](Cc1c[nH]c2ccccc12)C(=O)N[C@@H](CC(C)C)C(=O)N[C@@H](CCC(N)=O)C(=O)N[C@H](C(=O)N[C@@H](CCC(=O)O)C(N)=O)[C@@H](C)O | dynamic light scattering | PBS/DMSO | 5000 nM | hydrodynamic diameter | 1210 ± 187 nm
C[C@H](O)[C@@H](NC(=O)[C@H]1CCCN1C(=O)[C@@H](CCCCN)NC(=O)[C@@H](CO)NC(=O)[C@@H](Cc1ccc(O)cc1)NC(=O)[C@@H](CC(N)=O)NC(=O)CCOCCOCCOCCNC(=O)CN1CCN(CC(=O)O)CCN(CC(=O)O)CCN(CC(=O)O)CC1)C(=O)N[C@H](CC(=O)O)C(=O)N[C@H](CCCNC(=N)N)C(=O)N[C@H](CCC(N)=O)C(=O)N[C@H](Cc1ccc(O)cc1)C(=O)N[C@H](Cc1c[nH]cn1)C(=O)N[C@H](Cc1ccccc1)C(N)=O [gallium-68 labelled] | – | BALB/c nude mice U-87 MG tumour, spleen | intravenous, 1.85 MBq, 2 h, radiolabelled | tissue uptake | 0.09 ± 0.03 %ID/g
O=C(O)/C=C\c1ccc2occc2c1O[C@@H]1O[C@H](CO)[C@@H](O)[C@H](O)[C@H]1O | post-procedure stability | rat plasma | 200 ng/mL, 1 h, room temperature | accuracy | 81.2%

For quick reference, copied from above:
Structure (SMILES) | assay | test system | conditions | quantity | result
COc1cc2c(cc1O)C(CCc1ccc(Cl)cc1)N([11CH3])CC2 (centres unmarked) | PET | Sprague-Dawley rat, male, brain | intravenous, 1 mg/kg, carrier added | peak brain radioactivity | 0.9 %ID/mL
